Assay results collected from several papers.
Parts stem from different laboratories: compare values within a part only. Changes are numbered by the printed parent chain.

Series 1
Target: Ras GTPase-activating protein-binding protein 1, full length (G3BP1, Homo sapiens, UniProt Q13283)
UniProt Q13283, sequence (whole entry, looked up): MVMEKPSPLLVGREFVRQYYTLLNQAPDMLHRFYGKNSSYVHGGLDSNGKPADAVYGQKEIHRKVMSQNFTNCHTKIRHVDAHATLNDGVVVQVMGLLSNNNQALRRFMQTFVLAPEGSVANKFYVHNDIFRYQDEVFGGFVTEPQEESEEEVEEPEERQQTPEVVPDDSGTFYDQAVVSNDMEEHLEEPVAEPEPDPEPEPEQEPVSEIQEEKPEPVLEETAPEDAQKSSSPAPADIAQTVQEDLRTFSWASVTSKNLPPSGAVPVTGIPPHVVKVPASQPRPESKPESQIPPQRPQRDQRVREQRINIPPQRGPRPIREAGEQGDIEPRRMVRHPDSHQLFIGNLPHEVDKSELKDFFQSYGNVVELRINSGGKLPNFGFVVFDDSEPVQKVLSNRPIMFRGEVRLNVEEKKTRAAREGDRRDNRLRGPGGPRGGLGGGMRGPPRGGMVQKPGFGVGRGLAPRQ
Method: RNA Bind-n-Seq
Molecule type: RNA
Medium: in vitro
Tested at: 200 nM
Notes: whole 134-nt RNA, ends assumed
With: 150 mM KCl
Baseline: input library
Reading: higher = stronger binding
Endpoint: log2 enrichment
Shared flanks, not repeated: GGGAGUUCUACAGUCCGACGAUC … UGGAAUUCUCGGGUGUCAAGG
UCCUCAAGUCCUGUGCUACACAUCGUAUGUACCGAAUCGGAGGAGGAAAGGAAAGUAUUAUGUUACGCCGUUCGGAUCUGCACUUCCAGC: -0.728
ACCAUGCAGGUGGGCACCUUUGGGAAGUGGGGCAAGGGGGGGAUAGGGAGGGGGGUAACACUUUGGGAACAGGUGGUCCCAGGUCGUUUC: 1.53
AGUCCUGUGCUACACAUCGUAUGUACCGAAUCGGGGCCCCGGGCCCCGGGGCCCCGGGAAAGUAUUAUGUUACGCCGUUCGGAUCUGCAC: -0.629
GCAGGAAGUAAAAACAAAUGAAAAUGCUUCGGAUAGUGGCAGGGGUGGGGGUUGCUAAGGAAAGGGUGGGAUGGGAGUGGGUAAAGAGUU: 0.894
GCAGGAAGUAAAAACAAAUGGAAAUGCUUCGGAUAGUGGCAGGGGUAAAGGUUGCUAAGGAAAGGGUGGGAUGGGAGUGGGUAAAGAGUU: 0.936
CUGUGCUACACAUCGUAUGUACCGAAUCGGGGAAAAAAGGGAAAAAAGGGGAAAAAAGGGGAAAGUAUUAUGUUACGCCGUUCGGAUCUG: -0.214
UCCUGUGCUACACAUCGUAUGUACCGAAUCGGGAAAAAAAGGGAAAAAGGGAAAAAGGGAAAGUAUUAUGUUACGCCGUUCGGAUCUGCA: -0.343
CUCAAGUCCUGUGCUACACAUCGUAUGUACCGAAUCGGGGUUGGUUGGGUUGGGAAAGUAUUAUGUUACGCCGUUCGGAUCUGCACUUCC: 0.723
CCUGUGCUACACAUCGUAUGUACCGAAUCGGGGCCCCCCGGCCCCCCGGGGCCCCCCGGGGAAAGUAUUAUGUUACGCCGUUCGGAUCUG: -0.267

Series 2
Target: RING finger protein unkempt homolog, zinc fingers 1-6, GST-SBP tag (UNK, Homo sapiens, UniProt Q9C0B0, residues 30-357)
UniProt Q9C0B0, sequence (30-357, looked up): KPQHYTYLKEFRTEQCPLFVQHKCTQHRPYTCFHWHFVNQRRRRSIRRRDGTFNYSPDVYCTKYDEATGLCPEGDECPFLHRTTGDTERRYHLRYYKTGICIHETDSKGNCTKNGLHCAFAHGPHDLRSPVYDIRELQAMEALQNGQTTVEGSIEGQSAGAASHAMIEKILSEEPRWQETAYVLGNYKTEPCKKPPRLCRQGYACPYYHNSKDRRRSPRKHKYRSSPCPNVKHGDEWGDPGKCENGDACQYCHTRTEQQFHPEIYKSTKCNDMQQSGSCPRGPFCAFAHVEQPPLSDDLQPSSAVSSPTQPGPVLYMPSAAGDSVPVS
Method: RNA Bind-n-Seq
Molecule type: RNA
Medium: in vitro
Tested at: not given
Notes: RNA with constant flanks, human-mouse chimeric sites, ends assumed
Baseline: input RNA pool
Reading: higher = stronger binding
Endpoint: bound/input enrichment
Shared flanks, not repeated: GGGAGUUCUACAGUCCGACGAUC … CAACAGAGGAUUGAGCAUCA
GGCUGCUACUAUUCUCCCUGGAGUGGCCGUGUCACCGGCCGGAGCGCGGCCAGACUAAUUUUAGAAAAUGCCAAGUAGGAAGUUUGUUGAGGGUGAAGUGGUCAGAGGCCGAUGGCCUGG: 9.62 ratio
AAUUUCCGCAACUGUUUUUUAGACAUUCACAUCAGACUUACAGAGCACCUGGCCACAUUCUAGGUUUGUGUUAUUUCUAAGCCUUUUAUAUGAUCAAAUGAGAACACUGCUUAACUAAUG: 0.45 ratio
AGAUUCCCCCUCCUGAGACCUCCUCCGAAAUUGGCAUCUCUUACAGAUGCCUCAUCCCCUGUUAGCGUUUUAGUUUGGACCACCCAGCCUUGGACAAUUCCCGCCAAUGAAGCUGUUUGC: 1.83 ratio
GACUUUGGAACUGGUCCUCGCAACGCAGCCUACUAUAGCCCUCAUGGACAUAUAUUAGUGCUGGCUGGAUUUGGAAAUCUUCGAGGACAAAUGGAAGUAUGGGAUGUUAAAAACUACAAG: 0.36 ratio
GAUAAGAAAAGCUUGUUGGAGACCCGAUUGCAUGUCACUGGUAGAGAACUGAGGUCCCAAAUAGCUGAAACUUUCGGAUUUCAAGAAAAUUACAUCAAGAUCGUAAUAAAUAAGAAACAG: 0.46 ratio
UCAGAAGCUGUGCUGGGUCACUUUUCAUAUCCAGAUCCUUCACAGUGGACAGAUGAAGAACUGGGAAUCCCUCCUGAUGACGAGGACUGACACUGUAAACUCUCUGGACGAGUAGGAGCA: 0.886 ratio
UUAAACACCAAGCUGAUGUAAAUGUUUGGCCUCCAUCUCUCAGGCACGUGUGCCUUCUCUUAGUCCCUGUUUUCGGGAUGUUAUGAAUCUCAGUACUGUGGUUUGAAAGCACCAGCUUUG: 0.154 ratio
AAACAUCUGUCUUUAAGCAUUCCAAGCGAGAAUGCUGGGGUGAUCAUUGUUGCCCAUGUGCCUUCUGUAAUAGAUGGAAUGCUGUUCCAUGUUACAUCUUUCCUUCACUCCAGAAUUGUU: 0.122 ratio

Series 3
Target: ABI1, truncated, D143A, DHFR fusion (Arabidopsis thaliana)
Method: DHFR PCA, deep sequencing
Medium: yeast
Notes: methotrexate growth selection, single substitutions
With: (+)-ABA 0 µM
Baseline: wild-type fitted maximum
Reading: higher = stronger binding
Endpoint: relative binding score
Starting sequence: PYL1, truncated, DHFR fusion (Arabidopsis thaliana); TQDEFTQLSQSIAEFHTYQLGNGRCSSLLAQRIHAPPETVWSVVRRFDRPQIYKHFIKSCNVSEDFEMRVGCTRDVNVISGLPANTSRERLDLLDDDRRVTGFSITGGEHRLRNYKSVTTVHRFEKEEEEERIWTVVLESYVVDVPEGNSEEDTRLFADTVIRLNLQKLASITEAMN; partner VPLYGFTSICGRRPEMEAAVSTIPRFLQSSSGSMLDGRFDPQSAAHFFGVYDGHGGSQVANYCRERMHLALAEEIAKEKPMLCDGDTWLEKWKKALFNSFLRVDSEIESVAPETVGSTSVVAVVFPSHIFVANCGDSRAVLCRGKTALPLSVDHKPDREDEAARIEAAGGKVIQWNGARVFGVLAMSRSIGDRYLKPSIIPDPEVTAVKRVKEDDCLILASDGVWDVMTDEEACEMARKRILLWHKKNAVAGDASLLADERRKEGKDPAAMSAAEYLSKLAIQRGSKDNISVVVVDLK
T17L: -0.975%
D75L: 27.9%
N177T: 35.8%
N22T: 34.8%
D144N: 0.328%
T73L: 12.3%
S150W: 3.17%
Y18V: -0.552%
L156G: -3.13%
V40Q: 5.2%
A170C: 6.93%
I162Q: -2.51%
E147W: -2.13%

Series 4
Target: CCND1, cyclin fold, Cln2 fusion (human)
Method: yeast growth competition, sequencing
Medium: yeast
Notes: strong parent motif
Baseline: not given
Reading: higher = stronger binding
Endpoint: normalised enrichment score
Starting sequence: E2F1 docking peptide (human); PPVKRRLDFETDH; partner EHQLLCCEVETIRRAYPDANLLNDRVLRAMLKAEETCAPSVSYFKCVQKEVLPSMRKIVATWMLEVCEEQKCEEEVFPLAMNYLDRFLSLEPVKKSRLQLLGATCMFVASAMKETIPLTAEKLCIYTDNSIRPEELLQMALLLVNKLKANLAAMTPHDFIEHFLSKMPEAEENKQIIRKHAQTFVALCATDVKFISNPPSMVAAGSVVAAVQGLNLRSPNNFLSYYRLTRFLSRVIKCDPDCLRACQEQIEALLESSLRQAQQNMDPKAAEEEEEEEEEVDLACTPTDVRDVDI
PPVKRRLDEETDH [F9E]: 0.369
PPVKRRLDFQTDH [E10Q]: 1.99
PPVKNRLDFETDH [R5N]: 0.539
PPVKRRLDFECDH [T11C]: 3.13
PIVKRRLDFETDH [P2I]: 1.35
PPVKRRLYFETDH [D8Y]: 1.92
PPVKRRLDFENDH [T11N]: 3.3
PPVGRRLDFETDH [K4G]: 1.78
PPVKRRLDTETDH [F9T]: 0.164
PPVKRRLHFETDH [D8H]: 1.49
PPAKRRLDFETDH [V3A]: 2.87
PPVKRRLDGETDH [F9G]: -0.0549
PPVKRRLDFRTDH [E10R]: 1.28
PPVKRRLLFETDH [D8L]: 1.88
PPVKRRLDFETTH [D12T]: 2.66
PPVKRRLDFETGH [D12G]: 2.91
PPVKWRLDFETDH [R5W]: 0.49
PPVKRRPDFETDH [L7P]: -0.0749
PPVKRRLDFEGDH [T11G]: 2.88
PPVKRRLDFHTDH [E10H]: 1.82
PPVKRRLDVETDH [F9V]: -0.381
PPVKRRLEFETDH [D8E]: 2.25
PPVKFRLDFETDH [R5F]: 0.794
PPVKRRLDPETDH [F9P]: -0.361
PPFKRRLDFETDH [V3F]: -0.458

Some of these lines once more (series 4):
PPVKRRLDFETTH [D12T]: 2.66
PPVKRRLDFETGH [D12G]: 2.91
PPVKWRLDFETDH [R5W]: 0.49
